Measured values pooled from the literature.
Lines come from different studies, so protocols differ.
Target: Vascular endothelial growth factor receptor 2 (KDR, Homo sapiens, UniProt P35968)

The remaining binding of `COc1c(Cl)cccc1Nc1c(-c2ccncc2C#C[C@@]2(C)CCCN2C(=O)/C=C/CN(C)C)[nH]c2c1C(=O)NCC2` is reported as 99% (cell-free assay, competition with immobilised ligand; 3 µM).
Under “activity vs control”, `CNC(=O)C[C@H](Cc1ccc(C#N)cc1)NC(=O)c1cc(-c2ccc(CN[C@H](C)c3ccc(C)cc3)o2)ccc1Cl` is recorded as 86% (enzyme activity, inhibitor; 1 µM).
With `C=CC(=O)N1CCCC(n2c(=O)c3ncccc3n(Cc3ccc(Oc4ccccc4)cc3)c2=O)C1` (stereo not shown) the remaining binding was 64% (cell-free assay, competition with immobilised ligand; 1 µM).
`Cc1[nH]nc2c1N=C(c1ccccc1Cl)c1cnc(N3CCOCC3)cc1N2` has an inhibition of > 99% (enzyme activity, inhibitor; 0.5 µM).
With `CC(C)=CC1OC(C)(C)C2C=C3C(=O)C(Cl)=CC(O)C3C3C(O)C4OC4C(=O)C132` (stereo not shown) the remaining binding was 59% (cell-free assay, competition with immobilised ligand; 10 µM).
For `COc1cc(-n2cc3cc(F)cc(C(N)=O)c3n2)cc(Cl)c1C1CC(O)(CCO)Cc2ccccc21` (stereo not shown), the inhibition was 0.99% (enzyme activity, inhibitor; 10 µM).
For `O=C(Cc1ccc(OCc2ccccc2)cc1)NC1(C(=O)O)CCN(C(=O)c2ccc(-c3cccc(Cl)c3)cc2)CC1`, “activity vs control” read 95% (enzyme activity, inhibitor; 10 µM).
`CN1CCN(Cc2ccc(NC(=O)c3cccc(C#Cc4cnc(N)c5ncccc45)c3)cc2C(F)(F)F)CC1` has a remaining binding of 6.5% (cell-free assay, competition with immobilised ligand; 50 nM).
`Nc1ncc(-c2cc(-c3cnn(CC(F)(F)F)c3)ncc2F)nc1C(=O)NC1CNCC(F)C1` (stereo not shown) has a remaining activity of 99.7% (enzyme activity; 1 µM; relative to: DMSO control).
`COc1ccc(NC(=O)c2c(Nc3ccccc3)sc(C(=O)N/N=C/c3ccc(OC)c(OC)c3)c2NC(C)=O)cc1` gave a remaining activity of 44.3% (enzyme activity, inhibitor; 10 µM).
`O=C=[N][Ru-4]123([n]4c5ccc(O)cc5c5c6c(c7cc(F)c[n+]1c7c54)C(=O)NC6=O)[S+]1CC[S+]2CC[S+]3CC1` (stereo not shown) has a remaining activity of 78% (enzyme activity; 100 nM, human enzyme, with: 10 µM ATP; relative to: untreated).
With `C=CC(=O)Nc1cccc(-c2cnc3[nH]cc(C(=O)NC(C)(C)C)c3n2)c1` the inhibition was 18% (enzyme activity, inhibitor; 0.1 µM).
For `Cc1cnc2nc1Nc1cccc(c1)COC/C=C/COCc1cc(ccc1OCCN1CCOCC1)N2`, the remaining binding was 64% (binding, competition with immobilised ligand; 0.1 µM).
`Cc1cccc(O[C@H]2CCC[C@@H](C(C)CNCc3ccncc3)C2)c1` (relative stereo) gave an inhibition of 2% (cell-free assay; 1 µM).
`CCn1cc(C(=O)O)c(=O)c2c(N)c(F)c(NC3CCCCC3)cc21` gave an inhibition of -1.5% (kinase activity; 0.1 µM, with: ATP at Km).
`CNC(=O)C1CCN(c2cc(C)c(F)cc2NC(=O)c2ccc(-c3cc(O)ccc3C)c(C)c2)CC1` gave a remaining binding of 69% (binding, competition with immobilised ligand; 1 µM).
